Measured values from different studies.
Every numbered part comes from another study and shows a few of its results, in no order. Several values in a cell are separate wells, animals, samples, runs or records.

Study 1
Cell line: normal organoid sample F
Technique: CellTiter-Glo
Species: human
Sample: normal-adjacent epithelium
Tested at: 0.1 µM
Relative to: DMSO
Compound | viability
O=C(c1ccc(F)cc1)N1CC(COc2ccc(Br)cc2)(C(=O)O)C1 | 81.5% and 127%
CC(C)CC(=O)N1CCc2nc(-c3ccc(Br)cc3)nc(N(C)Cc3ccccc3)c2C1 | 108% and 124%
O=C(Nc1ccc(Oc2ccc(F)cc2)cc1)N1CCc2ncccc2[C@H]1c1ccc(F)cc1 | 126% and 71.9%
COc1ccc2cc(OCC3(C(=O)O)CN(C(=O)c4ccc(F)cc4)C3)ccc2c1 | 160% and 111%
Cc1c[nH]c2nccc(Oc3c(F)cc(Nc4cc(Cl)nc(N)n4)cc3F)c12 | 137% and 89.8%
COCCOc1nc(-c2ccc(Cl)nc2)nc2c1CN(C(=O)c1ncn3ccccc13)CC2 | 81.2% and 93.5%
CS(=O)(=O)NCC[C@H](NC(=O)c1cncc2c1cnn2-c1ccc(F)cc1)c1ccnc(S(C)(=O)=O)c1 | 146% and 152%

Study 2
Species: mouse
Sample: microsomes or S9
Tested at: 2 µM
Time: 0.5 h
SMILES | remaining compound
Cc1nnc2n1CC1CCC(C2)N1C(=O)c1cccc2[nH]ccc12 (centres unmarked) | 87%
O=c1c(O)c(-c2ccccc2OC(F)F)oc2ccccc12 | 0%
O=C1CC(c2ccccc2Cl)CC2=C1C(c1ccc3c(c1)OCO3)Nc1ccccc1N2 (centres unmarked) | 2.71%
Cc1nnc(C[S+]([O-])c2ccc(Cl)c(Cl)c2)n1C (centres unmarked) | > 100%
O=c1cc(CSC2CCCCC2)nc2sc3c(n12)CCCC3 | 0.117%
CC(=O)OCCNc1cnc(Cl)cc1Cn1c(C(=O)c2cc(C)cc(C)c2)c(C(C)C)c(=O)[nH]c1=O | 0.212%
c1ccc2c(-c3cn4c5ccccc5n(CCN5CCCCC5)c4n3)cccc2c1 | 1.35%
c1ccc(-c2nnc(-c3cc4ccccc4o3)o2)nc1 | 1.21%
COc1ccc(/C=C/c2nnc(-c3ccc(Cl)cc3Cl)o2)cc1 | 51.7%
Fc1ccccc1-c1cc(NC2CCNCC2)n2nccc2n1 | > 100%
Nc1nc2ncc(-c3ccc(Cl)cc3)c(N)n2n1 | 86.5%

Study 3
Compound: CC(C)C[C@@H]1NC(=O)[C@@H](N(C)C(=O)[C@H](CC2CCC2)NC(=O)[C@@H]2C[C@@H](F)CN2C(=O)C2(C(F)(F)F)CC(F)(F)C2)CCCCNC(=O)C2(CC2)NC(=O)[C@H](Cc2cc(Cl)ccc2Cl)N(C)C1=O
Technique: PI flow cytometry
Time: 24 h
cell line | setting | G1 phase cells
NCI-H446 | 20 nM | 38.5% and 41.3% and 46.4%
A549 | 2000 nM | 56.3% and 41.1% and 45.8%
NCI-H1299 | 20 nM | 65.2% and 67.3% and 61.9%
NCI-H446 | 200 nM | 22.7% and 23.2% and 22.6%
NCI-H82 | 20 nM | 43.2% and 50.9% and 41%
NCI-H82 | 200 nM | 46.6% and 42.2% and 40.5%
HCC4006 | 20 nM | 53.1% and 55.2% and 51.9%
NCI-H82 | 2000 nM | 35.4% and 31%

Study 4
Organism: Sarcocystis neurona
Observed: parasite growth
Tested at: 10 µM
Structure (SMILES) | inhibition [%]
Clc1ccc(COC(Cn2ccnc2)c2ccc(Cl)cc2Cl)c(Cl)c1 (centres unmarked) | 54.2
O=C1CN2Cc3c(ccc(Cl)c3Cl)N=C2N1 | -22.7
Cc1ccc(N(CC2=NCCN2)c2cccc(O)c2)cc1 | -19.4
COc1cc2c(cc1OC)C(=O)C(CC1CCN(Cc3ccccc3)CC1)C2 (centres unmarked) | -31.3
OCc1cc(C(O)CNCCCCCCOCCCCc2ccccc2)ccc1O (centres unmarked) | 27
C[C@H]1O[C@@H](O[C@H]2[C@@H](O)C[C@H](O[C@H]3[C@@H](O)C[C@H](O[C@H]4CC[C@@]5(C)[C@H](CC[C@@H]6[C@@H]5C[C@@H](O)[C@]5(C)[C@@H](C7=CC(=O)OC7)CC[C@]65O)C4)O[C@@H]3C)O[C@@H]2C)C[C@H](O)[C@@H]1O | 49
C[C@@H]1C[C@H]2[C@@H]3CCC4=CC(=O)C=C[C@]4(C)[C@@]3(F)[C@@H](O)C[C@]2(C)[C@H]1C(=O)CO | 6.9
Nc1ncnc2c1ncn2[C@@H]1O[C@H](CO)C[C@H]1O | -20.5
COc1ccc(CC(C)NCC(O)c2ccc(O)c(NC=O)c2)cc1.COc1ccc(CC(C)NCC(O)c2ccc(O)c(NC=O)c2)cc1.O.O.O=C(O)/C=C/C(=O)O (centres unmarked) | -25.9
